# Literature values as cited in several papers.
# Organism: Mycobacterium tuberculosis
SMILES,observed,method,strain,MIC
O=C(NC1CCCCCC1)c1ccc2ccccc2n1,,,H37Rv,111 µM
O=C(N1CCN(c2nc(=O)c3cc(C(F)(F)F)cc([N+](=O)[O-])c3s2)CC1)C12CC3CC(CC(C3)C1)C2,,,H37Rv,0.031 µM
O=C(O)c1c(=O)c2cc([N+](=O)[O-])c(N3CCC4(CC3)OCCO4)nc2n2c1sc1ccccc12,,,H37Rv,0.19 µM
O=C1c2ccccc2C(=O)N1c1ccc(S(=O)(=O)Nc2nccs2)cc1,,,H37Rv,10 µg/mL
O=C(/C=C/c1cccs1)N1CCN(Cc2ccc3c(c2)OCO3)CC1,bacterial growth,,H37Rv,0.3 µM
Cc1ccc2nc(C)c(C(=O)NCc3ccc(S(C)(=O)=O)cc3)n2c1,,alamar blue fluorescence,H37Rv,0.4 µM
O=C(Nc1ccc(Cl)cn1)c1cccc(C(F)(F)F)c1,,,,31.2 µg/mL
O=C(NCc1cn(Cc2ccc([N+](=O)[O-])cc2)nn1)c1cccnc1,bacterial growth,,,1.56 µg/mL
O=C1c2c(F)c(F)c(F)c(F)c2C(=O)N1c1ccc(S(=O)(=O)Nc2ccccc2)cc1,,,H37Ra,32 µg/mL
Cc1nc2sc3ccccc3n2c1C(=O)NNC(=O)c1ccc(Oc2ccccc2)cc1,,,,3.53 µM
O=C(NN1C(=O)c2ccccc2C1=O)c1ccncc1,,,,5 µg/mL
CC(=O)N(CCCP(=O)(O)O)OCc1cccc2ccccc12,,,,25 to 200 µg/mL
